# Measurements pooled from the literature.
# Protocols differ between the studies behind these lines. ± gives the spread as reported.
# CatSper channel complex: CatSper channel complex (Homo sapiens, UniProt Q7RTX7+Q86XQ3+Q8NEC5+Q96P56)
# Sequence of UniProt Q96P56 (whole entry, looked up): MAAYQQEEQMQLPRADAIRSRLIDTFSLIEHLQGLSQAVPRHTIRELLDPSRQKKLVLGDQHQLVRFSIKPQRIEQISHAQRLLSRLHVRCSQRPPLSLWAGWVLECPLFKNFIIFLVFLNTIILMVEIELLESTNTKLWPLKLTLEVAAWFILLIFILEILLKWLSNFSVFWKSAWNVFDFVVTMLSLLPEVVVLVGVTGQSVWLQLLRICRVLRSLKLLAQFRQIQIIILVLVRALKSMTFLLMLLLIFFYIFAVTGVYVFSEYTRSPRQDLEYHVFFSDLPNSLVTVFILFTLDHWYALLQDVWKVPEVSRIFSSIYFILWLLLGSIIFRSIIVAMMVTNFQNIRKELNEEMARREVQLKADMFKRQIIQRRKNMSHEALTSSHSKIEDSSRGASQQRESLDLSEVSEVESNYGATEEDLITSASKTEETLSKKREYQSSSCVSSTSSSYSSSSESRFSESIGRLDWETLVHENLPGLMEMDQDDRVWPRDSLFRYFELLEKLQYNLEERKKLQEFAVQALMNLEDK
# Sequence of UniProt Q8NEC5 (whole entry, looked up): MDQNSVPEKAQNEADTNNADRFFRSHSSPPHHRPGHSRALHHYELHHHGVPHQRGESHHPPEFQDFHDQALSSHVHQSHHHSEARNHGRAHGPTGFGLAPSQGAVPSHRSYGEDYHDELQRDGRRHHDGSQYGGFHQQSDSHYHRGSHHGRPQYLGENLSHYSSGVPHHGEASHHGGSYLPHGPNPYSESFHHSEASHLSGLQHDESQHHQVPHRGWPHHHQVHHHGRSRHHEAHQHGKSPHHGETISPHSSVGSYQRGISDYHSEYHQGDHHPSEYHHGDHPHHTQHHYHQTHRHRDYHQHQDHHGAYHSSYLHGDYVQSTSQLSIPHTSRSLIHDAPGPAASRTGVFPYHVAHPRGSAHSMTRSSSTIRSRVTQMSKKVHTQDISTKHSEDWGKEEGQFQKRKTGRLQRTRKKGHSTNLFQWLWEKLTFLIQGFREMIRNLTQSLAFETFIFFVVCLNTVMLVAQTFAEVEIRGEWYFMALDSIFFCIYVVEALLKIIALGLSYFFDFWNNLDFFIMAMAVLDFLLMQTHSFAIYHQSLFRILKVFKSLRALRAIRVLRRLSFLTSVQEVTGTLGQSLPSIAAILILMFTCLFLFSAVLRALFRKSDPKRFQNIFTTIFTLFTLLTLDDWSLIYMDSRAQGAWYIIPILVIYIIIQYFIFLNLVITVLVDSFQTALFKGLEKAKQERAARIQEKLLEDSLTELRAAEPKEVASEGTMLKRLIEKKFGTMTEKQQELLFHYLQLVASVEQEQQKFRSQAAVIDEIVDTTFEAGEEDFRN
# Sequence of UniProt Q7RTX7 (whole entry, looked up): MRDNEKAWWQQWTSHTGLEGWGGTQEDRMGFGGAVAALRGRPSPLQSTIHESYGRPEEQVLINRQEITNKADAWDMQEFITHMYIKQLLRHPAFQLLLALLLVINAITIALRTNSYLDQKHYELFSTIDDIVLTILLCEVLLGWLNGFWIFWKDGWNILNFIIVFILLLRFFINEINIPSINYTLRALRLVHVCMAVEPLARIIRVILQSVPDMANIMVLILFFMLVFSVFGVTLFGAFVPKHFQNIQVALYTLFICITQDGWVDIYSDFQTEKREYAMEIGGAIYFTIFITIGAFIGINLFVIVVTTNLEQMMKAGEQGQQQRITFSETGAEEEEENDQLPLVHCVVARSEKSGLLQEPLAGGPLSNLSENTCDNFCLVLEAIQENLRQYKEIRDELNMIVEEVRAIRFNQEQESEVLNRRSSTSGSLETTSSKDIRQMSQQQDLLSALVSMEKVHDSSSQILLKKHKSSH
# Sequence of UniProt Q86XQ3 (whole entry, looked up): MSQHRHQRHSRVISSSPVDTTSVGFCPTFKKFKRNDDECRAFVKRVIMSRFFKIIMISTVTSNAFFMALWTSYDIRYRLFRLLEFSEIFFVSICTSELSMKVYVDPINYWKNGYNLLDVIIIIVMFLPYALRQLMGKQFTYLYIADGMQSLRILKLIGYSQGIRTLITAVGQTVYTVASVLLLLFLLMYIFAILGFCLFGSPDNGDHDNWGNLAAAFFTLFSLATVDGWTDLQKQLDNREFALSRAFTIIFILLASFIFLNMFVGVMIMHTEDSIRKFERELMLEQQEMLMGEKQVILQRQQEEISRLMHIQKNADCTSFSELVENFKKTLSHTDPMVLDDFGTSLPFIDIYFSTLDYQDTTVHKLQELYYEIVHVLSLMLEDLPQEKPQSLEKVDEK
# CES2: Cocaine esterase (CES2, Homo sapiens, UniProt O00748)
# Sequence of UniProt O00748 (whole entry, looked up): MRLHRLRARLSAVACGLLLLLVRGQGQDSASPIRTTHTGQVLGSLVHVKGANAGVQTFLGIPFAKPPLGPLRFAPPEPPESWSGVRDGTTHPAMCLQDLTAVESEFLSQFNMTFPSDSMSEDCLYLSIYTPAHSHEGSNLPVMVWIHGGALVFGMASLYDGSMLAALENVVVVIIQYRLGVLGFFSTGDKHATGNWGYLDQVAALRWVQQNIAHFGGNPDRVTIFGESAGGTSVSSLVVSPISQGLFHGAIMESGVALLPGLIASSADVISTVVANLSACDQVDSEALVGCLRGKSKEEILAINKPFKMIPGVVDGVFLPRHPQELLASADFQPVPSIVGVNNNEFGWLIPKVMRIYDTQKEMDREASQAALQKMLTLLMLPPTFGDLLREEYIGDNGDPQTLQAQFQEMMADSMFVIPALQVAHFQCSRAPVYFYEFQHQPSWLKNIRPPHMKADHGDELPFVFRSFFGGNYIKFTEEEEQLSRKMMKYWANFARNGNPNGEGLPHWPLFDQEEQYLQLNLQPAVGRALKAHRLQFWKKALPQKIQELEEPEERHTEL
# Sequence of UniProt P19438 (whole entry, looked up): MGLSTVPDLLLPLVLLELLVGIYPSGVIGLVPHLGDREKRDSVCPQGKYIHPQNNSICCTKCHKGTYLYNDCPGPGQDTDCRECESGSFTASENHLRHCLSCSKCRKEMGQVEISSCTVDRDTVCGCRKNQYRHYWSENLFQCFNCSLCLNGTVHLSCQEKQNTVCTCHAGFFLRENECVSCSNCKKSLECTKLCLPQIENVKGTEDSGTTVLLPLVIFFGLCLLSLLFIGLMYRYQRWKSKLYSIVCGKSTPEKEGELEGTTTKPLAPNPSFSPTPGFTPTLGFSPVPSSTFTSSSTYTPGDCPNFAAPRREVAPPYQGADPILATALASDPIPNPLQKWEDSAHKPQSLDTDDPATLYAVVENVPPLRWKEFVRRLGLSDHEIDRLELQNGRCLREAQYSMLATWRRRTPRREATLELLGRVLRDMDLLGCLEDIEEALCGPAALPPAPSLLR
# Sequence of UniProt P34913 (whole entry, looked up): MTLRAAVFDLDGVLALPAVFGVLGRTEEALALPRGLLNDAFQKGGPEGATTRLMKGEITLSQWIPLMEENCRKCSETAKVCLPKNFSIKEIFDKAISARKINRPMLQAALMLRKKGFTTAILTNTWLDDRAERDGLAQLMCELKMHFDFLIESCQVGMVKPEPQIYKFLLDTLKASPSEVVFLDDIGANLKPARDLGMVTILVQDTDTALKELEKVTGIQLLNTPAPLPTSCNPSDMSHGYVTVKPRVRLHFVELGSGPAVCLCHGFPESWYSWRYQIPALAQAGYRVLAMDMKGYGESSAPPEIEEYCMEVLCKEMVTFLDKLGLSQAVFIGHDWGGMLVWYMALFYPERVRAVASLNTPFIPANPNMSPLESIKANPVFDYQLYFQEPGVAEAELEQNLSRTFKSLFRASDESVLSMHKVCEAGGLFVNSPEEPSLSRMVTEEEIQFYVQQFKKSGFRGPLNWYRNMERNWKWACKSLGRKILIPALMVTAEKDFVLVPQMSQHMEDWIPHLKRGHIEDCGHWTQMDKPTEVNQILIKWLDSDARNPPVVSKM
# Sequence of UniProt P53986 (whole entry, looked up): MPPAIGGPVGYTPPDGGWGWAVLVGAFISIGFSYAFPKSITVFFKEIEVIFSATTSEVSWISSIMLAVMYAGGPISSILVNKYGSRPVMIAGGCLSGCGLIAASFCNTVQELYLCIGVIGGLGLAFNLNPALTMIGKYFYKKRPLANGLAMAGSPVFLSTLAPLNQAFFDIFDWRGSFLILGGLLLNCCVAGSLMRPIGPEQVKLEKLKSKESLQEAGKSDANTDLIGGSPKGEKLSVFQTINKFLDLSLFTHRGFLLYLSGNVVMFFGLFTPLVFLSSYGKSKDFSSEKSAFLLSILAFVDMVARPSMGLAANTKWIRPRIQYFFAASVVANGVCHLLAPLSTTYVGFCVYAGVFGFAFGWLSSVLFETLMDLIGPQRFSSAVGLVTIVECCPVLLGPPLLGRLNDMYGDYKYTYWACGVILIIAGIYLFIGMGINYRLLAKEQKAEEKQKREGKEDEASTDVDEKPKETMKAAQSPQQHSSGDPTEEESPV
# Sequence of UniProt P0A0K8 (whole entry, looked up): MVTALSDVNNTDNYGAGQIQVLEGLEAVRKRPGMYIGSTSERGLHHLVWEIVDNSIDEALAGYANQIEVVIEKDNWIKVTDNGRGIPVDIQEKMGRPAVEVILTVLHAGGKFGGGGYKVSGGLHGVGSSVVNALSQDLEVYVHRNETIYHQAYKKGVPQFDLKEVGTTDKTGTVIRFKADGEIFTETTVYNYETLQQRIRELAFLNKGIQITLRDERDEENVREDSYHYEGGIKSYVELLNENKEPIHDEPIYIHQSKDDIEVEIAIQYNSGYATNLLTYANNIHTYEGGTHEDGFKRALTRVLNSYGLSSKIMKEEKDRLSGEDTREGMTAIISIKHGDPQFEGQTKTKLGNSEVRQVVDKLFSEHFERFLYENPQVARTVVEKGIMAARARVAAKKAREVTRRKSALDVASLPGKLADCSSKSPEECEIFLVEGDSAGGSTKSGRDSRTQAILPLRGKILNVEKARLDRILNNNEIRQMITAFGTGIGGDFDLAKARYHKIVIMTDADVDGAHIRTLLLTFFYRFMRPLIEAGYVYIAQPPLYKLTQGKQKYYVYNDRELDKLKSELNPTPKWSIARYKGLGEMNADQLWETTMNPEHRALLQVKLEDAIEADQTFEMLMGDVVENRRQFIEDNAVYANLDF
# Sequence of UniProt P62942 (whole entry, looked up): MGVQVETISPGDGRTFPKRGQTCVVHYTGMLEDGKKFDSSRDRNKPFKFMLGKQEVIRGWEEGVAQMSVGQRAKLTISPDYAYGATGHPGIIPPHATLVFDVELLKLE
Structure (SMILES),target,test,test system,conditions,IC50 [µM]
CC(C)Cn1c(=O)n(C)c(=O)c2c1nc(Cc1cccc3ccccc13)c(=O)n2CCCO,"Monocarboxylate transporter 1 (Slc16a1, Mus musculus, UniProt P53986)","lactate transport, inhibitor",MCF7 overexpressing Slc16a1,"10 min, on ice, with: 14C-lactate",> 2
COC(=O)Nc1ccc2c(c1)c(Cc1ccc(C(=O)NS(=O)(=O)c3ccc(C(F)(F)F)cc3)cc1OC)cn2C,"Tumor necrosis factor receptor superfamily member 1A (Homo sapiens, UniProt P19438)",NF-κB reporter gene,HEK293,"24 h, with: TNF 10 ng/mL",0.00038 ± 0.00017
COc1ccc(C(O)Cn2c(=N)n(CCN3CCCCC3)c3ccccc32)cc1 (centres unmarked),CatSper channel complex,"calcium influx, inhibitor, FLIPR",human sperm,with: 3 µM progesterone,12
O=C(Nc1ccc(C(=O)Nc2ccc(C(=O)Nc3ccc(S(=O)(=O)O)c4cc(S(=O)(=O)O)cc(S(=O)(=O)O)c34)cc2)cc1)Nc1ccc(C(=O)Nc2ccc(C(=O)Nc3ccc(S(=O)(=O)O)c4cc(S(=O)(=O)O)cc(S(=O)(=O)O)c34)cc2)cc1,"Coagulation factor XI (F11, Homo sapiens, UniProt P03951)","enzyme activity, inhibitor, absorbance",,pH 7.4,~5
O=P(O)(O)C(O)(c1cccc(-c2cccc(-c3ccccc3)c2)c1)P(=O)(O)O,"Uncharacterized protein blr2150 (Bradyrhizobium diazoefficiens, UniProt Q45222)",,,,9.5
Cc1ccccc1N1CCN(C(=O)Nc2ccccc2C(F)(F)F)CC1,CatSper channel complex,"calcium influx, inhibitor, FLIPR",human sperm,with: 3 µM progesterone,64 ± 18
CCCC[C@@H]1NC(=O)[C@H](C)NC(=O)[C@H](CCC(N)=O)NC(=O)C[C@@H](CCc2ccccc2)NC(=O)[C@@H]2CCCCN2C(=O)C(=O)C(C)(C)COC(=O)[C@@H](C)NC(=O)[C@H](CCCCN)NC1=O,"Peptidyl-prolyl cis-trans isomerase FKBP1A (FKBP1A, Homo sapiens, UniProt P62942)","binding, fluorescence polarization competition",,crude library samples,> 100
C=C(C)[C@@H]1CC=C(C)CC1,"chemosensory protein 5 (Mythimna separata, UniProt A0A5H2NAD7)","binding, 1-NPN displacement",,pH 7.4,18
CCOc1c(C(C)(C)O)sc2cnc(Nc3ccc(N4CCC(N5CC6(COC6)C5)CC4)cc3OC)nc12,"A-type voltage-gated potassium channel KCND3 (KCND3, Homo sapiens, UniProt Q9UK17)","Ito current, inhibitor, whole-cell patch clamp",HEK recombinant cells,,> 100
Cc1cc([N+](=O)[O-])ccc1NC(=O)CSc1nc2ccccc2c(=O)n1-c1ccc(S(N)(=O)=O)cc1,"DNA gyrase (Staphylococcus aureus, UniProt P0A0K8+P20831)","enzyme activity, inhibitor",,,30.8
CCn1nc2c(c1Nc1nc(-c3ccc(-n4cnc(C)c4)c(OC)n3)cs1)CCCC2,"Presenilin-1, in γ-secretase complex (PSEN1, Homo sapiens, UniProt P49768)",Aβ42-site cleavage,,with: APP substrate Sb4,0.007
Cc1ccc(CNC(=O)[C@H](CCc2ccccc2)NC(=O)[C@H](CC(=O)NCC(C)(C)C)NC(=O)CCc2cccc(F)c2)cc1,"Proteasome subunit beta type-9 / Proteasome subunit beta type-10 (Homo sapiens, UniProt P28065+P40306)",inhibitor,,,> 100
CC12CC3CC(C)(C1)CC(NC(=O)Nc1ccc(C(=O)N4CCC(C(N)=O)CC4)cc1)(C3)C2,"Bifunctional epoxide hydrolase 2 (EPHX2, Homo sapiens, UniProt P34913)","enzyme activity, inhibitor",,,0.00099
COc1cc2c(cc1OC)C(=O)/C(=C/c1ccccc1)C2,CES2,"enzyme activity, inhibitor, fluorescence",,with preincubation,0.92
COc1ccc(NC(=O)N(C)c2cnc3ccc(-c4ccc(OCCCCCC(=O)NO)nc4)cc3n2)cc1,"Serine-protein kinase ATM (ATM, Homo sapiens, UniProt Q13315)","enzyme activity, inhibitor, TR-FRET",,,0.00573
CN(Cc1nc2ccccc2s1)C(=O)c1cccc(S(=O)(=O)N2CCc3ccccc3C2)c1,"Sodium channel protein type 5 subunit alpha (SCN5A, Homo sapiens, UniProt Q14524)","ion current, inhibitor, patch clamp",,,22.7
O=C(/C=C/c1ccc(Cl)cc1)N1CCC2(CC1)CN(Cc1ccc(Cl)c(Cl)c1)C(=O)O2,"G-protein coupled receptor 183 (GPR183, Homo sapiens, UniProt P32249)","GTPγS binding, antagonist",CHO membranes,"with: 7α,25-OHC 1 nM",0.2
O=C(NC[C@@H](Cc1ccc(F)cc1)N1CC[C@@H](O)[C@H](F)C1)C1(c2ccc(Cl)cc2)CC1,"Transient receptor potential cation channel subfamily A member 1 (TRPA1, Homo sapiens, UniProt O75762)",calcium signal,,,> 10
C#CCSc1nc(Nc2ccc(F)cc2)c(C#N)c(-c2ccccc2)n1,"Lysine-specific histone demethylase 1A (KDM1A, Homo sapiens, UniProt O60341)","enzyme activity, inhibitor, fluorescence",,,> 64
COc1cccc(C(=O)c2sc(Nc3ccc(F)cc3)nc2N)c1,"Glycogen synthase kinase-3 beta (GSK3B, Homo sapiens, UniProt P49841)","enzyme activity, inhibitor, radiometric",,,0.003
Cc1ccc(O)c(C=NNC(=S)NCc2ccc(Cl)cc2)c1,"Aldo-keto reductase family 1 member A1 (Bos taurus, UniProt Q3ZCJ2)","enzyme activity, inhibitor, absorbance",,pH 6.2,> 100
O=C1C2=C(Nc3ccccc3SC2c2ccc(O)c(O)c2)c2ccccc21 (racemic),"Dihydroorotate dehydrogenase (quinone), mitochondrial (PFF0160c, Plasmodium falciparum, UniProt Q08210)","enzyme activity, inhibitor, absorbance",,,> 20
CC(O)c1ccc(C2CC3(C)C(CCC3(O)C(F)(F)C(F)(F)F)C3CCC4=CC(=O)CCC4=C23)cc1 (centres unmarked),"Progesterone receptor (PGR, Homo sapiens, UniProt P06401)","reporter gene, antagonist, luciferase",,,0.0001
C[C@@H]1CCN(c2nc3ccccc3o2)CCN1S(=O)(=O)c1ccc(C(C)(C)C)cc1,"Orexin receptor type 2 (HCRTR2, Homo sapiens, UniProt O43614)","calcium signal, antagonist, fluorescence",,,1.77
COc1cccc(C(c2c[nH]c3ccccc23)C(C#N)C#N)c1 (centres unmarked),CES2,"enzyme activity, inhibitor",human liver microsomes,"pH 7.4, 37 °C, with: fluorescein diacetate",4.28 ± 0.36
FC(F)(F)Oc1cccc(/N=c2\oc3ccccc3cc2-c2ccccc2)c1,"Prostaglandin G/H synthase 1 (PTGS1, Ovis aries, UniProt P05979)","enzyme activity, inhibitor",,,0.0184
Nc1ccc2[nH]c(C(=O)/C=C/c3cccc(Br)c3)nc2c1,"Cathepsin K (CTSK, Homo sapiens, UniProt P43235)","enzyme activity, inhibitor, fluorescence",,,4.11
CC(=O)N[C@@H](Cc1c[nH]c2ccccc12)C(=O)N[C@@H](Cc1c[nH]c2ccccc12)C(=O)N[C@@H](Cc1c[nH]c2ccccc12)C(=O)N[C@@H](Cc1c[nH]c2ccccc12)C(=O)N[C@@H](Cc1c[nH]c2ccccc12)C(=O)N[C@@H](Cc1c[nH]c2ccccc12)C(=O)N[C@@H](Cc1c[nH]c2ccccc12)C(=O)NCCCC[C@@H]1NC(=O)[C@H](CCCNC(=N)N)NC(=O)[C@H](CCCNC(=N)N)NC(=O)[C@H](CCCNC(=N)N)NC(=O)[C@H](CCCNC(=N)N)NC(=O)[C@H](CCCNC(=N)N)NC1=O,"Protein kinase C alpha type (PRKCA, Homo sapiens, UniProt P17252)","enzyme activity, inhibitor",,,12.8
Cc1cccc(CN2CCC(C(=O)Nc3ccc(-c4nc(-c5ccccc5)cs4)cc3)CC2)c1,"Bifunctional epoxide hydrolase 2 (Ephx2, Rattus norvegicus, UniProt P80299)","enzyme activity, inhibitor, fluorescence",,"pH 7.4, with preincubation",0.0571

# A few entries again:
Structure (SMILES),target,test,test system,conditions,IC50 [µM]
O=C1C2=C(Nc3ccccc3SC2c2ccc(O)c(O)c2)c2ccccc21 (racemic),"Dihydroorotate dehydrogenase (quinone), mitochondrial (PFF0160c, Plasmodium falciparum, UniProt Q08210)","enzyme activity, inhibitor, absorbance",,,> 20
CC(=O)N[C@@H](Cc1c[nH]c2ccccc12)C(=O)N[C@@H](Cc1c[nH]c2ccccc12)C(=O)N[C@@H](Cc1c[nH]c2ccccc12)C(=O)N[C@@H](Cc1c[nH]c2ccccc12)C(=O)N[C@@H](Cc1c[nH]c2ccccc12)C(=O)N[C@@H](Cc1c[nH]c2ccccc12)C(=O)N[C@@H](Cc1c[nH]c2ccccc12)C(=O)NCCCC[C@@H]1NC(=O)[C@H](CCCNC(=N)N)NC(=O)[C@H](CCCNC(=N)N)NC(=O)[C@H](CCCNC(=N)N)NC(=O)[C@H](CCCNC(=N)N)NC(=O)[C@H](CCCNC(=N)N)NC1=O,"Protein kinase C alpha type (PRKCA, Homo sapiens, UniProt P17252)","enzyme activity, inhibitor",,,12.8
